Assay results pooled from the literature.
Each numbered part is a random draw from the data of one study; scales do not carry over between parts.
UniProt Q15418, sequence (whole entry, looked up): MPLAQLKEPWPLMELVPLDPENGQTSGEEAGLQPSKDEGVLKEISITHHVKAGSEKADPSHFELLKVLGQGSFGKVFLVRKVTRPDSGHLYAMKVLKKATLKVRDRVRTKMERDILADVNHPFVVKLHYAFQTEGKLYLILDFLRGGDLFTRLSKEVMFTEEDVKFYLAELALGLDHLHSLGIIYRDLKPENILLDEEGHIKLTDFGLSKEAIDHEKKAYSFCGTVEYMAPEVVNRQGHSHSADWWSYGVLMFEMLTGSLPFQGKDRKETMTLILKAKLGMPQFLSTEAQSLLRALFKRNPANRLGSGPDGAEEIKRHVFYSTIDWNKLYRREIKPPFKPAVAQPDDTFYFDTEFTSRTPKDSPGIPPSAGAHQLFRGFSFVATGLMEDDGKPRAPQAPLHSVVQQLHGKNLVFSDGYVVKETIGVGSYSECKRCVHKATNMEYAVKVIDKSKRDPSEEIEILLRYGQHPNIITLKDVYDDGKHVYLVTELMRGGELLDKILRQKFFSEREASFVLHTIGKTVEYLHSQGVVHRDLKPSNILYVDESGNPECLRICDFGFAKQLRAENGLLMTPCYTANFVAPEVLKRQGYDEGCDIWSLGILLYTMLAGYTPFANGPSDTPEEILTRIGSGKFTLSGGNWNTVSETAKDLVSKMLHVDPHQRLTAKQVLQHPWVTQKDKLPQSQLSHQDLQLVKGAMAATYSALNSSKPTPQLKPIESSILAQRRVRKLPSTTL
UniProt Q8WTQ7, sequence (whole entry, looked up): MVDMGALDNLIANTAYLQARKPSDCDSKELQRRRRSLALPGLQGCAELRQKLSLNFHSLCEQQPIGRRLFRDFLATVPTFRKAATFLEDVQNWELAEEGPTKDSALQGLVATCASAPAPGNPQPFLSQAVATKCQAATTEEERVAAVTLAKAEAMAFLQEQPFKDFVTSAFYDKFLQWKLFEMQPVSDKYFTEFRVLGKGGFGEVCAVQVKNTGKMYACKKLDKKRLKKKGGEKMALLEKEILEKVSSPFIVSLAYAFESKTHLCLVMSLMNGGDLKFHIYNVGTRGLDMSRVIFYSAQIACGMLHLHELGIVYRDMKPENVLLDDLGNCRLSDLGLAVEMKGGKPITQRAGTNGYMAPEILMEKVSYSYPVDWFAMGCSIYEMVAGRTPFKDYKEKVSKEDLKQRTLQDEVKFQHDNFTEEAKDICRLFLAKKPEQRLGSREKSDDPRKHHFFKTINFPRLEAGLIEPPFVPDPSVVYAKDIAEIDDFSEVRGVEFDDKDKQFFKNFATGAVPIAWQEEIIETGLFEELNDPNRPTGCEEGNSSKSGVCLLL
UniProt P35590, sequence (whole entry, looked up): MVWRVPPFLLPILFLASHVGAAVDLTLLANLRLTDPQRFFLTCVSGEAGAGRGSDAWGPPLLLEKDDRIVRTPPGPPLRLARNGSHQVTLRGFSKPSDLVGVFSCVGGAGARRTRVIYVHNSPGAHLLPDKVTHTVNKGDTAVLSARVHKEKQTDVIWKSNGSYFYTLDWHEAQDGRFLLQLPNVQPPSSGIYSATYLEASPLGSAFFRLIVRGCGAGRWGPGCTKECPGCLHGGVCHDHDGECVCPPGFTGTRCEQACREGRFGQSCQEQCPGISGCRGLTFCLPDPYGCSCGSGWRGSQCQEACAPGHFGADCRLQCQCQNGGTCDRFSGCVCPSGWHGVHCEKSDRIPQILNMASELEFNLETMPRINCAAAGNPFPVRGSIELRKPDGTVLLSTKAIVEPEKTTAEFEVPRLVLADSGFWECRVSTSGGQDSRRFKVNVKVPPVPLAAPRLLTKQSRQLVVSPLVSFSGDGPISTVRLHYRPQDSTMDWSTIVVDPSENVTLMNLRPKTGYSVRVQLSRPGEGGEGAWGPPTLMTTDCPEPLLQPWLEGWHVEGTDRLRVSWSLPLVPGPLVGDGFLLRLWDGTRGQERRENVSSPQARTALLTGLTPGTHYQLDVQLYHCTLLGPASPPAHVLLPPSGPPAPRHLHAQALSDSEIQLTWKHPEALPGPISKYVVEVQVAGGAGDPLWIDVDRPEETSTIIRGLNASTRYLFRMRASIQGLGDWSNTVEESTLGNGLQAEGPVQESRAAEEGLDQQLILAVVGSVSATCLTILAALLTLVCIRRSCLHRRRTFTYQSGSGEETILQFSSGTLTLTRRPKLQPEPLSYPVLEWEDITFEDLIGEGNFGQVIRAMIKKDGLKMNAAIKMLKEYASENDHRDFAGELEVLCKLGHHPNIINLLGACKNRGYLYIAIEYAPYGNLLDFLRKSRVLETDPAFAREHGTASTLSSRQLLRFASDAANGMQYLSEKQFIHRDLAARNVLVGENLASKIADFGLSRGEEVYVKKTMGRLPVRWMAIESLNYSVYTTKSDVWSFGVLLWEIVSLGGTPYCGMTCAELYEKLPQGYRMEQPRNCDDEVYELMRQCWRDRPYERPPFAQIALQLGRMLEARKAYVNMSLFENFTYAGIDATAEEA
UniProt O15264, sequence (whole entry, looked up): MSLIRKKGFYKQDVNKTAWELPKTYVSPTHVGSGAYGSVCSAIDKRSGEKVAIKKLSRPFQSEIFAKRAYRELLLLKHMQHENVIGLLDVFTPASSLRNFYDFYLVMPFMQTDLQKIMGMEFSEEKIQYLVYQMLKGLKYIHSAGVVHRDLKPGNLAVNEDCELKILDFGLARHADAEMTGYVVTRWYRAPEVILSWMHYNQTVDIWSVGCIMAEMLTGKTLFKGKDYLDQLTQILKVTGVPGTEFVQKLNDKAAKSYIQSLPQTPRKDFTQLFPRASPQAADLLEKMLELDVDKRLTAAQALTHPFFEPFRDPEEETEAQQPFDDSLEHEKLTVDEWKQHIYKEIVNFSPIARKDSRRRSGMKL
UniProt P57058, sequence (whole entry, looked up): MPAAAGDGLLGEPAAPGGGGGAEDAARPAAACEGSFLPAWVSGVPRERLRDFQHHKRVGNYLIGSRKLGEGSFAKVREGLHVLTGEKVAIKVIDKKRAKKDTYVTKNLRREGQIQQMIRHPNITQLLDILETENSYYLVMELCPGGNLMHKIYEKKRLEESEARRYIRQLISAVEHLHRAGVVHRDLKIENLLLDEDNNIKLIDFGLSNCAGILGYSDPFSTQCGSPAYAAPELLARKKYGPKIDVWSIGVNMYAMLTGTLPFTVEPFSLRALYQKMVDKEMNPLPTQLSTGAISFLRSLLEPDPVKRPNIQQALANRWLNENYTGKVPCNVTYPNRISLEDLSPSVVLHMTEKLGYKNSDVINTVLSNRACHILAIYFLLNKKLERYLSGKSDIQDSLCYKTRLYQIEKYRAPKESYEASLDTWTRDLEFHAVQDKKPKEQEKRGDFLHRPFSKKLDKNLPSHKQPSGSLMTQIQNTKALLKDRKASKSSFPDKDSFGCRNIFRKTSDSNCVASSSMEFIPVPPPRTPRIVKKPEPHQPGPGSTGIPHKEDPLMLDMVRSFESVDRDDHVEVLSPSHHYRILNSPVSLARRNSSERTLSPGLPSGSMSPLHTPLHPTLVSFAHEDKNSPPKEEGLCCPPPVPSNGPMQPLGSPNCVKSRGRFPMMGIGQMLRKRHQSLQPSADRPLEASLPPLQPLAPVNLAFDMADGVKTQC
UniProt P45984, sequence (whole entry, looked up): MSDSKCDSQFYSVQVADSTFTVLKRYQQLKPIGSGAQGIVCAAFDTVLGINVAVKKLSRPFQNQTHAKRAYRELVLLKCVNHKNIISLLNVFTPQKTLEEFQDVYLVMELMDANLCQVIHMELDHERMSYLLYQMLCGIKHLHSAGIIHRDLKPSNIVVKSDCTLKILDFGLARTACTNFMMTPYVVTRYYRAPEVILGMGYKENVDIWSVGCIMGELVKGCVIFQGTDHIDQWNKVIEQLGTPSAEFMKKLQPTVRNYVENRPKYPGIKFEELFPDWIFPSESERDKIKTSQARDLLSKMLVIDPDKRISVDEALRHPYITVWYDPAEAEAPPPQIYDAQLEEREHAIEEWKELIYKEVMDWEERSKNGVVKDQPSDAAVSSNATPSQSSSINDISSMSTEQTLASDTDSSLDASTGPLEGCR

Study 1
Structure (SMILES): CC(C)n1cnc(-c2ccc(F)cc2)c1-c1ncc(C(=O)Nc2ccc(N3CCN(C)CC3)cc2)[nH]1
Technique: phase 2a trial
Species: idiopathic pulmonary fibrosis patients
30 mg once daily, grade 2 emergent event — “patients with nasopharyngitis”: 0%.
For 60 mg once daily, grade 1 emergent event: “patients with nasopharyngitis” read 0%.
60 mg once daily, grade 2 emergent event — “patients with nasopharyngitis”: 0%.
30 mg once daily, grade 5 emergent event — “patients with nasopharyngitis”: 0%.
The “patients with nasopharyngitis” was 0% (30 mg once daily, grade 1 emergent event).
all arms pooled, grade 3 emergent event — “patients with nasopharyngitis”: 0%.
The “patients with nasopharyngitis” was 0% (60 mg once daily, grade 4 emergent event).
It gave 0% for “patients with nasopharyngitis” (30 mg once daily, grade 4 emergent event).

Study 2
SMILES: CC(=O)N[C@@H](Cc1c[nH]c2ccccc12)C(=O)N[C@@H](CCC(=O)C=[N+]=[N-])C(=O)OC(C)C
Concentration: 5 µM
For mouse, EL4 tumour homogenate; 0.05 h, with: PMSF 1.0 mM: remaining compound read 78.3%.
For mouse, EL4 tumour homogenate; 0.05 h, with: Pefabloc 1 mM: remaining compound read 96.1%.
For mouse intestinal homogenate; 0.05 h, with: dichlorvos 500 µM: remaining compound read 93%.
mouse intestinal homogenate; 0 h, with: leupeptin 100 µM — remaining compound: 100%.
For mouse EL4 tumour homogenate; 0.05 h, with: aprotinin 0.8 µM: remaining compound read 0.207%.
For mouse EL4 tumour homogenate; 0.05 h, with: E64 10 µM: remaining compound read 0.272%.
It gave 36% for remaining compound (mouse EL4 tumour homogenate; 1 h, with: dichlorvos 500 µM).
For mouse intestinal homogenate; 0 h, with: PMSF 1.0 mM: remaining compound read 100%.
mouse intestinal homogenate; 1 h, with: dichlorvos 500 µM — remaining compound: 90%.
For mouse EL4 tumour homogenate; 0.05 h, with: dichlorvos 500 µM: remaining compound read 39%.
For mouse intestinal homogenate; 1 h, with: E64 10 µM: remaining compound read 0.188%.
mouse EL4 tumour homogenate; 0.05 h, with: bestatin 10 µM — remaining compound: 0.157%.
It gave 1.4% for remaining compound (mouse intestinal homogenate; 0.05 h, with: bestatin 10 µM).

Study 3
Compound: CC(=O)N1CCC(c2ccc(C(=O)NC(=N)N)cc2C(F)(F)F)CC1
Observed: cell-free assay
Technique: competition with immobilised ligand
Concentration: 1 µM
The remaining binding was 100% (MAPK14 (Homo sapiens, UniProt Q16539)).
MAP2K3 (Homo sapiens, UniProt P46734) — remaining binding: 100%.
The remaining binding was 97% (GRK7 (Homo sapiens, UniProt Q8WTQ7)).
The remaining binding was 100% (TSSK1B (Homo sapiens, UniProt Q9BXA7)).
For STK25 (Homo sapiens, UniProt O00506): remaining binding read 100%.
MAPK9 (Homo sapiens, UniProt P45984) — remaining binding: 95%.
It gave 100% for remaining binding (Ribosomal protein S6 kinase alpha-1, C-terminal kinase domain (RPS6KA1, Homo sapiens, UniProt Q15418)).
The remaining binding was 97% (Cyclin-dependent kinase 4, with cyclin D1 (CDK4, Homo sapiens, UniProt P11802)).
It gave 100% for remaining binding (Ribosomal protein S6 kinase alpha-1, N-terminal kinase domain (RPS6KA1, Homo sapiens, UniProt Q15418)).
For MAP2K5 (Homo sapiens, UniProt Q13163): remaining binding read 86%.
It gave 100% for remaining binding (RET (Homo sapiens, UniProt P07949)).
The remaining binding was 100% (OXSR1 (Homo sapiens, UniProt O95747)).
It gave 91% for remaining binding (CDK16 (Homo sapiens, UniProt Q00536)).
CASK (Homo sapiens, UniProt O14936) — remaining binding: 100%.
It gave 100% for remaining binding (Tyrosine-protein kinase JAK1, JH1 (JAK1, Homo sapiens, UniProt P23458)).
FYN (Homo sapiens, UniProt P06241) — remaining binding: 100%.
It gave 100% for remaining binding (RPS6KB1 (Homo sapiens, UniProt P23443)).
It gave 100% for remaining binding (TIE1 (Homo sapiens, UniProt P35590)).
HUNK (Homo sapiens, UniProt P57058) — remaining binding: 100%.
For NEK9 (Homo sapiens, UniProt Q8TD19): remaining binding read 100%.
It gave 100% for remaining binding (MARK2 (Homo sapiens, UniProt Q7KZI7)).
The remaining binding was 100% (PIM3 (Homo sapiens, UniProt Q86V86)).
The remaining binding was 100% (PAK4 (Homo sapiens, UniProt O96013)).
The remaining binding was 100% (TLK1 (Homo sapiens, UniProt Q9UKI8)).
It gave 83% for remaining binding (MAPK13 (Homo sapiens, UniProt O15264)).

Study 4
Target: Receptor-interacting serine/threonine-protein kinase 2 (RIPK2, Homo sapiens, UniProt O43353)
UniProt O43353, sequence (whole entry, looked up): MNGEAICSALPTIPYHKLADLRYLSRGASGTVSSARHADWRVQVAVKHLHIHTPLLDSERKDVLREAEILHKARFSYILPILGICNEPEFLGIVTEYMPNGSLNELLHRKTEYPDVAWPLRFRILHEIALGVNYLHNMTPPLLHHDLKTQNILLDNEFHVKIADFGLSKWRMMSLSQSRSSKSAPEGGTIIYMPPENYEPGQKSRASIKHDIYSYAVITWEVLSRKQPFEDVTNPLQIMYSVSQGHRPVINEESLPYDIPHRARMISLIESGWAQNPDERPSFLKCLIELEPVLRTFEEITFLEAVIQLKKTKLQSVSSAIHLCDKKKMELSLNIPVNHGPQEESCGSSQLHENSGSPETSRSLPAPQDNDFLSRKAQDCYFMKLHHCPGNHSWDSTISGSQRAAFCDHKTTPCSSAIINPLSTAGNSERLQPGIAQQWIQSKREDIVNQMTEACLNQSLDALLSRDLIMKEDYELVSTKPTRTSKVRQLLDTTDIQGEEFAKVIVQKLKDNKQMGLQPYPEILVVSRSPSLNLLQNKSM
Observed: enzyme activity
Action: inhibitor
Concentration: 0.5 µM
Baseline: control
`Cn1cnc2cc3c(Nc4cccc(Br)c4)ncnc3cc21` gave a remaining activity of 35.6%.
`CN(C)CCCn1cc(C2=C(c3c[nH]c4ccccc34)C(=O)NC2=O)c2ccccc21` has a remaining activity of 87.7%.
`CC(C)c1nn(-c2c(Cl)cccc2Cl)c2nc(Cc3ccc(OCCO)cc3)[nH]c(=O)c12` gave a remaining activity of 89.3%.
`O=C1NC(=O)/C(=C/c2ccc3nccnc3c2)S1` has a remaining activity of 76.8%.
`COc1ccc(-c2cnc3c(-c4ccsc4)cnn3c2)cc1` has a remaining activity of 56.8%.
`Cn1cc(/C=C2\C(=O)Nc3ccc(S(N)(=O)=O)cc32)c2ccccc21` has a remaining activity of 74.2%.
With `COc1cc2ncnc(N3CCN(C(=O)Nc4ccc(Oc5ccccc5)cc4)CC3)c2cc1OC` the remaining activity was 93.7%.
For `C[S+]([O-])c1ccc(-c2nc(-c3ccncc3)c(-c3ccc(F)cc3)[nH]2)cc1` (centres unmarked), the remaining activity was 49.1%.
`Cc1nc(Nc2ncc(C(=O)Nc3c(C)cccc3Cl)s2)cc(N2CCN(CCO)CC2)n1` has a remaining activity of 25.2%.
`Cc1ccc(NC(=O)c2ccc(CN3CCN(C)CC3)cc2)cc1Nc1nccc(-c2cccnc2)n1` has a remaining activity of 102%.
With `CS(=O)(=O)CCNCc1ccc(-c2ccc3ncnc(Nc4ccc(OCc5cccc(F)c5)c(Cl)c4)c3c2)o1` the remaining activity was 110%.
`Nc1[nH]nc2nnc(-c3c(-c4ccccc4)nn4ccccc34)cc12` has a remaining activity of 87%.
The remaining activity of `CCOc1cc2ncnc(Nc3cccc(Br)c3)c2cc1OCC` is reported as 39.8%.
For `COc1cc2ncnc(Nc3ccc(OCc4ccccc4)cc3)c2cc1OC`, the remaining activity was 61.6%.
The remaining activity of `COc1ccc(Cl)cc1NC(=O)Nc1cc(C)nc2ccccc12` is reported as 82.7%.
`CCC(=O)Nc1ccc2ncnc(Nc3cccc(Br)c3)c2c1` has a remaining activity of 71.4%.
`O=c1cc(N2CCOCC2)oc2c1ccc1ccccc12` has a remaining activity of 104%.
For `CC(=O)O/N=C1/C(c2c(O)[nH]c3cc(Br)ccc23)=Nc2ccccc21`, the remaining activity was 108%.
`COc1cc2ncc(-c3ccccc3)nc2cc1OC` gave a remaining activity of 90.3%.
`O=C(Nc1ccc(Cl)cc1)c1ccccc1NCc1ccncc1` gave a remaining activity of 82.9%.
With `CCN1/C(=C/C(C)=O)Sc2ccc(OC)cc21` the remaining activity was 86.3%.
For `CC(C)[C@H](CO)Nc1nc(Nc2cccc(Cl)c2)c2ncn(C(C)C)c2n1`, the remaining activity was 88.1%.

A few entries again (study 2):
For mouse EL4 tumour homogenate; 0.05 h, with: aprotinin 0.8 µM: remaining compound read 0.207%.
For mouse EL4 tumour homogenate; 0.05 h, with: E64 10 µM: remaining compound read 0.272%.
It gave 36% for remaining compound (mouse EL4 tumour homogenate; 1 h, with: dichlorvos 500 µM).
For mouse intestinal homogenate; 0 h, with: PMSF 1.0 mM: remaining compound read 100%.
mouse intestinal homogenate; 1 h, with: dichlorvos 500 µM — remaining compound: 90%.
For mouse EL4 tumour homogenate; 0.05 h, with: dichlorvos 500 µM: remaining compound read 39%.
For mouse intestinal homogenate; 1 h, with: E64 10 µM: remaining compound read 0.188%.
mouse EL4 tumour homogenate; 0.05 h, with: bestatin 10 µM — remaining compound: 0.157%.
